Published values pooled from the literature.
Every numbered part comes from another study and shows a few of its results, in no order. pIC50: −log10 of the molar value.

Study 1 — technique: RNA Bind-n-Seq; molecule type: RNA; medium: in vitro; tested at: 365 nM; relative to: no-protein control; reading: higher = stronger binding
Target: RNA binding protein fox-1 homolog 2, RRM domain, GST-SBP tag (RBFOX2, Homo sapiens, UniProt O43251-10, residues 100-194)
Setting: natural RNA segment, single round, ends assumed
Construct (chain): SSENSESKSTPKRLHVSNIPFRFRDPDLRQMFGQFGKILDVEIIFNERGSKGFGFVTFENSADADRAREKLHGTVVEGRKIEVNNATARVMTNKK
Oligonucleotide	RBNS enrichment (R)
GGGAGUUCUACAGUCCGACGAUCUAACUGCCACAGUGCUAUUUGUUUACCAUCAAAUUGUAUUGGUGUUUCCAGGGCUUGUUGGUACAAAUCAAAGCCAAGACCAAUUAAAAGAAAUGUAUUUUUAUCUUCGGUGGAAUUCUCGGGUGCCAA	0.309
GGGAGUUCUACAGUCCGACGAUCCAUCCCUUCUCCCACCUCCUCCCCUCUCCCUCCCCCUGGAGACCCUGGAAGUGGUGUGUUCACAUACAGUGACCCUUGGCCACCAGACCACAGAGGAUGGAGCCUGGGAAUGGAAUUCUCGGGUGCCAA	0.393
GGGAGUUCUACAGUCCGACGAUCCUUAGCUGACUGUGCCCACGCCAGUCUUCAGGCACUGCAAGCAGCCGCUGGUCCCUGCUAUCCGAAGUGCCAUGCUUCCAGGAAGGACCAUGGGAAUGGUUUUGAGGACCUGGAAUUCUCGGGUGCCAA	1.07
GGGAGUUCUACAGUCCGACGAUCCCAAAAACAGAAAACAUGAUGUUGACUCAUGUAAUUUAGUCCAUUUUAGCAGAGCCUUUAGUGUUAACACCAGUGGCGAGGAGCAUUGCAUAUUCUCUGUCAGCAGCAGCUGGAAUUCUCGGGUGCCAA	0.771
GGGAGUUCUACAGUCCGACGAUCAAUACAAAAAUUAGCUGGGCAUGGUGGCAUGCGCCUGUAGUCUCAGCUACCUGGGAGGCUGAGGAAGGAGGAUCGCUUGAGCCCAGGAGGUGGAGGCUGCAGUGAGCCAAUGGAAUUCUCGGGUGCCAA	8.03
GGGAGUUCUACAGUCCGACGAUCGAUGGAUCAUAGGAUUCUGAUUUUAUGUGAAAUUUUGUCUAAUUCAUUAAAGCAGUUGCUUUUCCUAUGCUGUUUCAUUUCACCGUCUUUGUCACCACCCGCCUAAGUACUGGAAUUCUCGGGUGCCAA	0.492
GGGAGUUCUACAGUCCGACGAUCUUUAUUGCAUGCACUGUGACCUUGGGGGGAGACAAAGAGGGGGAUUGUACCCCCACCCCCUGCACCUCCCUGCGAUCUGGCUGGCUUGGAUCUCAUUUUUUAACCCCUUCUGGAAUUCUCGGGUGCCAA	3.04
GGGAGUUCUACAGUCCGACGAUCUGCCUCCGUCUCCUAGUGAUAAUGCUCCAAGUCUAUGAACUGUUAAAUCAGCAUUCAUUUUAAGAAAAGCAACUUUAGUUUCAAAGAUACUUUUAAGCUUCUAAAUUGAUUGGAAUUCUCGGGUGCCAA	0.624

Study 2 — observed: enzyme activity; mode: inhibitor; tested at: 20 µM
Target: Replicase polyprotein 1ab, polymerase (rep, Severe acute respiratory syndrome coronavirus 2, UniProt P0DTD1)
Structure (SMILES)	inhibition
CC(C)=CCC[C@](C)(O)[C@H]1CC[C@]2(C)[C@@H]1[C@H](O)C[C@@H]1[C@@]3(C)CC[C@H](O[C@@H]4O[C@H](CO)[C@@H](O)[C@H](O)[C@H]4O[C@@H]4O[C@H](CO)[C@@H](O)[C@H](O)[C@H]4O)C(C)(C)[C@@H]3CC[C@]12C	5.37%
C[C@H]1CN(Cc2ccc(CC(=O)N3CCC(Nc4cccc(F)c4)CC3)cc2)CCN1	-0.55%
COc1cc(S(C)(=O)=O)ccc1Nc1nc2ccc(-c3ccc(NC(=O)[C@H](C)c4ccc(F)cc4)cc3)cn2n1	8.05%
OCCn1cc(-c2ccc3c(c2)CC/C3=N\O)c(-c2ccncc2)n1	-1.81%
O=c1[nH]cnc2nc[nH]c12	-6.03%
Nc1ccc2ncnc(NCCc3ccc(Oc4ccccc4)cc3)c2c1	-5.77%
C=CC[N@@+]12CC[C@@]34c5ccccc5N5/C=C6/[C@H]7C[C@H]8[C@@]9(CC[N@@+]8(CC=C)C/C7=C/CO)c7ccccc7N(/C=C(/[C@@H](C[C@@H]31)/C(=C\CO)C2)[C@H]54)[C@@H]69	0.85%
CCCCCn1cc(C(=O)NC23CC4CC(CC(C4)C2)C3)c(=O)c2cc(-c3ccccc3)ccc21	7.83%
Cc1ccc(S(=O)(=O)Cc2nc(-c3ccc(C(=O)NCc4cccnc4)cc3)oc2C)cc1	-7.32%
CCOC(=O)c1cnc[nH]1	3.13%
O=S1(=O)CCN(CN2CCS(=O)(=O)NC2)CN1	0.23%
OCCN1CCN(CCCN2c3ccccc3C=Cc3ccccc32)CC1	-3.67%
Cn1cc(-c2cc(Oc3cc(F)c(NC(=O)C4(C(=O)Nc5ccccc5)CC4)cc3F)ccn2)cn1	-0.21%
CCCCCCN(CCCCCC)C(=O)Cc1c(-c2ccc(Cl)cc2)[nH]c2ccc(Cl)cc12	-5.58%
Nc1nc(Cl)nc2c1ncn2[C@@H]1O[C@H](CO)[C@@H](O)[C@H]1O	-4.82%
CC(C)(C)c1ccc(CN(Cc2cccc(OCC(=O)O)c2)S(=O)(=O)c2cccnc2)cc1	0.17%
COC(=O)N[C@H](C(=O)N1CCC[C@H]1C(=O)Nc1ccc([C@@H]2CC[C@@H](c3ccc(NC(=O)[C@@H]4CCCN4C(=O)[C@@H](NC(=O)OC)C(C)C)cc3)N2c2ccc(C(C)(C)C)cc2)cc1)C(C)C	-1.01%
O=C(/C=C/c1ccc2ccc(C(F)(F)F)cc2n1)c1ccncc1	0%
CN1C(CCl)Nc2cc(Cl)c(S(N)(=O)=O)cc2S1(=O)=O (stereo not shown)	-2.41%
CC1(C)CCC(C)(C)c2cc(C#Cc3ccc(C(=O)O)cc3)ccc21	31.2%

Study 3 — cell line: HEK-293T; observed: pseudovirus infection; technique: FDA-approved drug library screen; organism: VSV pseudotyped with SARS-CoV-2 spike; tested at: 10 µM; time: 16 h; relative to: vehicle-treated
SMILES	GFP-positive cells [%]
NNC(=O)c1ccncc1	95.3
O=C(c1ccc(OCCN2CCCCC2)cc1)c1c(-c2ccc(O)cc2)sc2cc(O)ccc12	9.66
C[N+]1(C)[C@@H]2C[C@@H](OC(=O)C(O)(c3cccs3)c3cccs3)C[C@H]1[C@@H]1O[C@@H]12	93.9
CC(C(=O)O)c1ccc(-c2ccccc2)c(F)c1 (stereo not shown)	105

Study 4 — observed: enzyme activity; mode: inhibitor
Target: Replicase polyprotein 1ab, main protease (rep, Severe acute respiratory syndrome coronavirus 2, UniProt P0DTD1)
SMILES	pIC50
CCCCCCCCCCCCCCCC[n+]1ccn(Cc2ccccc2)c1C	< 4.70
Cc1ccc(S(=O)(=O)c2ccc([N+](=O)[O-])o2)cc1	4.84
CC1(C)C(/C=C/C=C/C=C/C=C2\N(CCCCS(=O)(=O)O)c3ccc4ccccc4c3C2(C)C)=[N+](CCCCS(=O)(=O)[O-])c2ccc3ccccc3c21	< 4.70

Study 5 — technique: competition protein-binding microarray; molecule type: double-stranded DNA, one strand shown; medium: in vitro; tested at: 2 µM; together with: Pho4 competitor, 0.05 µM; reading: higher = stronger binding
Target: Centromere-binding protein 1, full length, His-tagged (CBF1, Saccharomyces cerevisiae, UniProt P17106, residues 1-351)
Chain of UniProt P17106 (whole entry, looked up): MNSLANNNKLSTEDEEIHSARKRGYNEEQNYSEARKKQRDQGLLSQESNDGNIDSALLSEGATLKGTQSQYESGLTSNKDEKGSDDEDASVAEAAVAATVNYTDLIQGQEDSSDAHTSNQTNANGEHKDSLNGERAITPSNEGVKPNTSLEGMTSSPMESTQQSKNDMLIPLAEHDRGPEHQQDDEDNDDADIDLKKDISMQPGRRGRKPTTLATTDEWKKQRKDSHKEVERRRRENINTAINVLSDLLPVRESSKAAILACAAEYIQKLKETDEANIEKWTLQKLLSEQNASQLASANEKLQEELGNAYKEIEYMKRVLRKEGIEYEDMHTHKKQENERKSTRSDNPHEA
Setting: whole 60-bp probe, lowest competitor level
Oligonucleotide	fluorescence intensity [a.u.]
AAGCTCAATTCGAGTCACGTGGGTAGAAATATTACAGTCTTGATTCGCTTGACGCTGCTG	13900
TTATCTGTTTTAATTGGCGTGGGTAAGTGGGGTAGGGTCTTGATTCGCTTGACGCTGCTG	75
CGCCCTATTCTGCACAGCGTGATGGGCTGTCTGACAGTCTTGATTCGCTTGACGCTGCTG	94
CATTGCGAGGGTACATCCGTGCAATATTTCTGAAAAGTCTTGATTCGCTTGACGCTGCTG	71.3
TGCGCAACAACTTGGGGAGTGGGTGTATGTCTAGAAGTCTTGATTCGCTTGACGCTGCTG	61.9
CTTTCCCGATCTTGTTTGGTGGGTGTAGCACATTTGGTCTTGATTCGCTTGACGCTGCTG	87.1
TGCGCAACAACTTGTCACCTTACTTTATGTCTAGAAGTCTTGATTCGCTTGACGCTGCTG	74.6
AAAGCGGTAATTTGAGATGTGGGTGCAGATATCTATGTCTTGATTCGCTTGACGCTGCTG	78.2

Some of these lines once more (study 2):
Structure (SMILES)	inhibition
Nc1nc(Cl)nc2c1ncn2[C@@H]1O[C@H](CO)[C@@H](O)[C@H]1O	-4.82%
OCCn1cc(-c2ccc3c(c2)CC/C3=N\O)c(-c2ccncc2)n1	-1.81%
OCCN1CCN(CCCN2c3ccccc3C=Cc3ccccc32)CC1	-3.67%
O=S1(=O)CCN(CN2CCS(=O)(=O)NC2)CN1	0.23%
CN1C(CCl)Nc2cc(Cl)c(S(N)(=O)=O)cc2S1(=O)=O (stereo not shown)	-2.41%
CCCCCn1cc(C(=O)NC23CC4CC(CC(C4)C2)C3)c(=O)c2cc(-c3ccccc3)ccc21	7.83%
